Published values pooled from the literature.
A part holds a random share of what one study measured. Changes are numbered by the printed parent chain.

Series 1 — target: CCNB3, cyclin fold, Cln2 fusion (human); method: yeast growth competition, sequencing; matrix: yeast; notes: weak parent motif; reference: not given; direction: higher = stronger binding
Parent: ORC1 docking peptide (human); PRARKRLELGNLG; partner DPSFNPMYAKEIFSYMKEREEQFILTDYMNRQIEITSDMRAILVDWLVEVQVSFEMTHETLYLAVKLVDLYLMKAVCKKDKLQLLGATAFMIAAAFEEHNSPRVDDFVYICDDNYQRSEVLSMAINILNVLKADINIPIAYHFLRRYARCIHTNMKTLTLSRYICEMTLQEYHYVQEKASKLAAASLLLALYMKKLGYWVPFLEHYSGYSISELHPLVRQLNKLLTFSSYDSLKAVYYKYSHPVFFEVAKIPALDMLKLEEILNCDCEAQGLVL
| Change | normalised enrichment score |
| --- | --- |
| PRARKRLELGNVG [L12V] | 0.0658 |
| PRARKRLELENLG [G10E] | 0.43 |
| PRARKRLEPGNLG [L9P] | -0.168 |
| PRARKRQELGNLG [L7Q] | 0.149 |
| PGARKRLELGNLG [R2G] | 0.296 |
| ERARKRLELGNLG [P1E] | 0.182 |
| PRAPKRLELGNLG [R4P] | 0.139 |

Series 2 — method: protein binding microarray; molecule type: double-stranded DNA, one strand shown; matrix: in vitro; tested at: not given; reference: not given; direction: higher = stronger binding
Target: Histone acetyltransferase KAT6A, winged helix 2, GST fusion (KAT6A, Homo sapiens, UniProt Q92794, residues 85-181)
Notes: 8-mer, flanks averaged, mean of 2 arrays, mostly near background
Target sequence (chain): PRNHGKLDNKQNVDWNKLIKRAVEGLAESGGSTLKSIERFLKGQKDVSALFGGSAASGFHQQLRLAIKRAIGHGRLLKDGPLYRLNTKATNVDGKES
| Sequence | E-score |
| --- | --- |
| ACGAAAGC | -0.0282 |
| TCGCATCA | 0.0922 |
| TGTGACAA | -0.00587 |
| CTCGGGAC | 0.0715 |
| CCCAAAGG | 0.0466 |
| AGTTGTAA | 0.00324 |
| CCCAAACC | 0.114 |

Series 3 — method: DHFR PCA, deep sequencing; matrix: yeast; with: (+)-ABA 4.8 µM; reference: wild-type fitted maximum; direction: higher = stronger binding
Target: ABI1, truncated, D143A, DHFR fusion (Arabidopsis thaliana)
Notes: methotrexate growth selection, single substitutions
Parent: PYL1, truncated, DHFR fusion (Arabidopsis thaliana); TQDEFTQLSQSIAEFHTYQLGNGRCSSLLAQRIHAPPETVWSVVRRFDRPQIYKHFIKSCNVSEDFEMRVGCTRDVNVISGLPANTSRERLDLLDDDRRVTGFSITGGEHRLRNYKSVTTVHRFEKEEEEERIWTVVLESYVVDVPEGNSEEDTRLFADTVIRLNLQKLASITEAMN
| Change | relative binding score |
| --- | --- |
| V78I | 81.5% |
| E151T | 70.8% |
| V44L | 58.8% |

Further values, each from its own experiment
| Substance | target | test | system | setting | scale | quantity | value |
| --- | --- | --- | --- | --- | --- | --- | --- |
| PhoQ, residues 284 288 289 292 302 303 AGGLSV | PhoP, residues 12 14 15 18 19 NQAHL (Escherichia coli, UniProt P23836) | Sort-seq, measured: YFP reporter | E. coli | PhoQ-PhoP variant library, with: 10 µM Mg2+ | reference: high Mg2+ state, higher = stronger signaling | fold induction | 0.684 |
